Results from different studies.
Compare with care: the assays were run in different laboratories. Values joined by “and” are separate records of one study, mostly repeats; a detail may differ.
Target: Interleukin-1 receptor-associated kinase 4 (IRAK4, Homo sapiens, UniProt Q9NWZ3)

SMILES	assay	system	setting	how to read	measurement	result
Cc1[nH]nc2c1N=C(c1ccccc1Cl)c1cnc(N3CCOCC3)cc1N2	enzyme activity, inhibitor		0.5 µM		inhibition	49.3%
COc1ccc(O)cc1-c1c[nH]c2ncc(-c3cncc(C(=O)N(C)C)c3)cc12	binding, competition with immobilised ligand		0.2 µM		inhibition	-10%
CN1CC[C@@H](COc2cnc(C#N)cc2-c2ccn3nc(NC(=O)C4CC4)cc3c2)C1	enzyme activity, inhibitor		1 µM		inhibition	8%
COc1c(Cl)cccc1Nc1c(-c2ccncc2C#C[C@@]2(C)CCCN2C(=O)/C=C/CN(C)C)[nH]c2c1C(=O)NCC2	binding, competition with immobilised ligand		3 µM		remaining binding	99%
NC(=O)[C@@H](O)C[C@H]1CCc2sc3ncnc(O[C@H]4CC[C@H](N5CCOCC5)CC4)c3c21	enzyme activity, inhibitor		10 µM		inhibition	100%
C=CC(=O)Nc1cccc(-c2cnc3[nH]cc(C(=O)NC(C)(C)C)c3n2)c1	enzyme activity, inhibitor		0.1 µM		inhibition	-3%
C=CC(=O)N1CCCC(n2c(=O)c3ncccc3n(Cc3ccc(Oc4ccccc4)cc3)c2=O)C1 (centres unmarked)	cell-free assay, competition with immobilised ligand		1 µM		remaining binding	75%
Cc1cccc(O[C@H]2CCC[C@@H](C(C)CNCc3ccncc3)C2)c1 (relative stereo)	kinase activity, kinome panel screening		10 µM		inhibition	-5%
COc1cc(Nc2nccc(-c3cnn4nc(OC)ccc34)n2)cc(C(F)(F)F)c1	binding, competition with immobilised ligand		1 µM		remaining binding	97%
O=C=[N][Ru-4]123([n]4c5ccc(O)cc5c5c6c(c7cc(F)c[n+]1c7c54)C(=O)NC6=O)[S+]1CC[S+]2CC[S+]3CC1 (centres unmarked)	enzyme activity		100 nM, human enzyme, with: 10 µM ATP	reference: untreated	remaining activity	108%
COCC12C(=O)NC3C4(C(OC)CC1O)C1CC5(O)C(OC)C(O)C(OC(C)=O)(C1C5OC(=O)c1ccccc1)C3(O)C(OC)C24 (centres unmarked)	kinase activity, inhibitor, ProQinase kinase profiling		25 µM	reference: control	remaining activity	97% and 104%
Fc1cncc(-c2ccc3[nH]c4ncnc(N[C@H]5CC[C@H](N6CCOCC6)CC5)c4c3c2)c1	enzyme activity, AlphaScreen		1 µM, with: ATP 25 µM		inhibition	100%
C=CC(=O)N1CCc2ccc(-n3c(=O)ccc4cnc5ccc(-c6cnn(C)c6)cc5c43)cc21	KINOMEscan		1 µM	reference: DMSO control	remaining binding	100%
Cc1ccc(-c2c(/C=C(\C#N)C(=O)NC(C)C)n(CCCO)c3ncnc(N)c23)cc1	cell-free assay, competition with immobilised ligand		1 µM		remaining binding	96%
Cn1cc(-c2ccc3[nH]c4nccc(N[C@H]5CC[C@H](N6CCOCC6)CC5)c4c3c2)cn1	enzyme activity, AlphaScreen		1 µM, with: ATP 25 µM		inhibition	100%
N[C@H]1CC[C@H](Nc2nccc(-c3cccnc3Oc3ccc(NC(=O)NC4CC4)c4ccccc34)n2)CC1	kinobead competition pulldown	HEK293/HCT116 lysate mixture	10 µM, 1 h, 4 °C	lower = stronger competition	log2 LFQ intensity	26.1 and 26
COc1c(OCCCN2CCOCC2)ccc2c1N=C(NC(=O)c1cnc(N)nc1)N1CCN=C21	kinase activity, inhibitor		1 µM	reference: untreated control	remaining activity	100%
CCn1cc(C(=O)O)c(=O)c2c(N)c(F)c(NC3CCCCC3)cc21	kinase activity		0.1 µM, with: ATP at Km		inhibition	-12.4%
O=C(O)CCC(=O)c1cccc(NS(=O)(=O)c2c[nH]c3ncccc23)c1	kinase activity, radiometric		10 µM		remaining activity	97%
Cc1cnc2nc1Nc1cccc(c1)COC/C=C/COCc1cc(ccc1OCCN1CCOCC1)N2	cell-free assay		0.1 µM		remaining signal	81%

Repeated from above:
SMILES	assay	system	setting	how to read	measurement	result
Cc1[nH]nc2c1N=C(c1ccccc1Cl)c1cnc(N3CCOCC3)cc1N2	enzyme activity, inhibitor		0.5 µM		inhibition	49.3%
COc1c(Cl)cccc1Nc1c(-c2ccncc2C#C[C@@]2(C)CCCN2C(=O)/C=C/CN(C)C)[nH]c2c1C(=O)NCC2	binding, competition with immobilised ligand		3 µM		remaining binding	99%
